Experimental data from different studies.
Protocols differ between the studies behind these lines. ± marks the error that the study gave.
Organism: Staphylococcus aureus

CCN(CC)CCCN1/C(=C/c2cc(C)[n+](C)c3ccccc23)Sc2ccccc21  MIC (microbial growth, broth dilution; MRSA): 8 µg/mL
CCCCCCCCCc1nc2cc(Cl)ccc2c(=O)n1OC  MIC (broth microdilution; RN6390B): > 100 µM
CO[C@H]1[C@H](O)[C@@H](N)[C@@H](O[C@H]2[C@H](O[C@@H]3O[C@H](CO)[C@@H](O[C@H]4O[C@@H](CN)[C@@H](O)[C@H](O)[C@H]4N)[C@H]3O)[C@@H](O)[C@H](N)C[C@@H]2N)O[C@@H]1CO  MIC (broth microdilution; MRSA isolate AG 038): 32 µg/mL
CC1(C)S[C@@H]2[C@H](NC(=O)[C@H](NC(=O)C3=C(O)C(c4ccccc4F)NC3=O)c3ccccc3)C(=O)N2[C@H]1C(=O)O (stereo partly shown)  MIC (microbial growth, broth dilution; MRSA NRS70; drug-resistant strain): 50 µg/mL
CN(C)c1cc(CNCC2CCCCC2)c(O)c2c1C[C@H]1C[C@H]3[C@H](N(C)C)C(O)=C(C(N)=O)C(=O)[C@@]3(O)C(O)=C1C2=O  MIC (microbial growth; MRSA): 1 µg/mL
CC1C(=O)NC(=O)N1/N=C/c1ccc([N+](=O)[O-])o1 (stereo not shown)  MIC (microbial growth, broth dilution; ATCC29213; 18 h): 25 µg/mL
CNC(CC(C)C)C(=O)NC1C(=O)NC(CC(N)=O)C(=O)NC2C(=O)NC3C(=O)NC(C(=O)NC(C(=O)O)c4cc(O)cc(O)c4-c4cc3ccc4O)C(O)c3ccc(c(Cl)c3)Oc3cc2cc(c3OC2OC(CO)C(O)C(O)C2OC2CC(C)(NC(=O)CCCC[n+]3ccccc3)C(O)C(C)O2)Oc2ccc(cc2Cl)C1O (stereo not shown)  MIC (agar dilution; MRSA clinical isolate MRSA4): 64 µg/mL
CN(C)c1cc(CN2CCCCC2)c(O)c2c1C[C@H]1C[C@H]3[C@H](N(C)C)C(O)=C(C(N)=O)C(=O)[C@@]3(O)C(O)=C1C2=O  MIC (MRSA 5, Tet M, 50% human serum): 1 µg/mL
CNC(CC(C)C)C(=O)NC1C(=O)NC(CC(N)=O)C(=O)NC2C(=O)NC3C(=O)NC(C(=O)NC(C(=O)O)c4cc(O)cc(O)c4-c4cc3ccc4O)C(O)c3ccc(c(Cl)c3)Oc3cc2cc(c3OC2OC(CO)C(O)C(O)C2OC2CC(C)(NC(=O)CCCC[N+](C)(C)C)C(O)C(C)O2)Oc2ccc(cc2Cl)C1O (stereo not shown)  MIC (agar dilution; MRSA clinical isolate MRSA4): 128 µg/mL
CN1/C(=C/C=C/c2cc(-c3ccccc3)cc(-c3ccccc3)[o+]2)C(C)(C)c2ccccc21  MIC (broth dilution; HFH-30123, MRSA): 0.5 µg/mL
CCn1cc(C(=O)NCCNCCO)c(=O)c2cc(OC)c(OCc3cccc(Br)c3)cc21  MIC (ATCC 43300 MRSA; ≥80% growth inhibition): > 32 µg/mL
NS(=O)(=O)c1ccc(-n2c(SCC(=O)Nc3ccc([N+](=O)[O-])cc3[N+](=O)[O-])nc3ccccc3c2=O)cc1  MIC (methicillin-resistant; 24 h, 37 °C): 15.6 µg/mL
CCn1cc(/C=C/c2sc3ccccc3[n+]2CC)c2ccccc21  MIC (1466, Mueller-Hinton broth): 1 ± 0.005 µg/mL
CC(C)C[C@H](NC(=O)[C@H](CC(N)=O)NC(=O)[C@H](CCCNC(=N)N)NC(=O)[C@@H](CC(C)C)NC(=O)[C@H](Cc1ccc(-c2ccccc2)cc1)NC(=O)[C@H](CC(=O)O)NC(=O)[C@H](CCCCN)NC(=O)[C@@H](CC(C)C)NC(=O)[C@H](CCCNC(=N)N)NC(=O)[C@H](CCC(N)=O)NC(=O)[C@@H](NC(=O)[C@@H](CC(C)C)NC(=O)[C@H](CCCNC(=N)N)NC(=O)[C@H](CCCCN)NC(=O)[C@H](Cc1ccc(-c2ccccc2)cc1)NC(=O)CN)C(C)C)C(=O)N[C@H](C(N)=O)C(C)C  MIC (USA300 LAC; overnight, pepsin pretreated): 4 µM
CC1C=CC=CC(C)C2C=CC3CC(C)(O)C(O)C(C)C3C2C(=O)C(Cl)(Cl)C(=O)C(C)C(=O)O1 (stereo not shown)  MIC (microbial growth, broth dilution; NEWMAN): 4 to 8 µg/mL
O=C(CC1COC(=O)N1/N=C/c1ccc([N+](=O)[O-])o1)c1ccccc1 (stereo not shown)  MIC (microbial growth, broth dilution; ATCC29213; 18 h): > 50 µg/mL
CN(C)c1cc(CNCc2ccco2)c(O)c2c1C[C@H]1C[C@H]3[C@H](N(C)C)C(O)=C(C(N)=O)C(=O)[C@@]3(O)C(O)=C1C2=O  MIC (MRSA 5, Tet M ribosome protection): 1 µg/mL
CCCCCCc1ccc(Oc2ccc(Oc3cccc(=O)[nH]3)cc2)c(O)c1  MIC (microbial growth, broth dilution): 10 µM
CN(C)c1cc(CNC(C)(C)C)c(O)c2c1C[C@H]1C[C@H]3[C@H](N(C)C)C(O)=C(C(N)=O)C(=O)[C@@]3(O)C(O)=C1C2=O  MIC (RN4250, Tet K efflux): 4 µg/mL
Oc1c(Br)cc(Br)c2nc3cc(Br)ccc3nc12  MIC (broth microdilution; MRSA 1707; 16 h, 37 °C): 0.05 µM
CC[P+](CC)(CC)[Au-][S+](C[C@H]1O[C@H](O[C@H]2O[C@H](COC(C)=O)[C@@H](OC(C)=O)[C@H](OC(C)=O)[C@H]2OC(C)=O)[C@H](OC(C)=O)[C@@H](OC(C)=O)[C@@H]1OC(C)=O)[Au-][P+](CC)(CC)CC.[Cl-]  MIC (broth microdilution; JE2 USA300): 0.006 µM
CNC(CC(C)C)C(=O)NC1C(=O)NC(CC(N)=O)C(=O)NC2C(=O)NC3C(=O)NC(C(=O)NC(C(=O)NCCCNC(=N)N)c4cc(O)cc(O)c4-c4cc3ccc4O)C(O)c3ccc(c(Cl)c3)Oc3cc2cc(c3OC2OC(CO)C(O)C(O)C2OC2CC(C)(N)C(O)C(C)O2)Oc2ccc(cc2Cl)C1O (stereo not shown)  MIC (Sensitive ATCC 25923): 0.25 µg/mL
CC(C)=CCc1c(O)ccc2c1O[C@H]1c3cc4c(cc3OC[C@@H]21)OC(C)(C)C=C4  MIC (ATCC 25923): 128 µg/mL
C[n+]1ccc(/C=C2\Sc3ccccc3N2CCCN2CCCC2)c2ccccc21  MIC (microbial growth, broth dilution; MRSA): 16 µg/mL
Cn1c(C23CC4CC(CC(C4)C2)C3)nn(CCN2CCCC2)c1=S  MIC (two-fold dilution; IFO 3060; 24 h, 36 °C): 4 µg/mL
CC[C@H](C)[C@H](N)C1=N[C@H](C(=O)N[C@@H](CC(C)C)C(=O)N[C@H](CCC(=O)O)C(=O)N[C@H](C(=O)N[C@H]2CCCCNC(=O)[C@H](CC(N)=O)NC(=O)[C@@H](CC(=O)O)NC(=O)[C@H](Cc3c[nH]cn3)NC(=O)[C@@H](Cc3ccccc3)NC(=O)[C@H]([C@@H](C)CC)NC(=O)[C@@H](CCCN)NC2=O)[C@@H](C)CC)CS1  MIC (USA300 MRSA, LB broth; 18 h, 37 °C, with: 0.3 mM ZnSO4): 2 µg/mL
CN(C)c1cc(CNCC(N)=O)c(O)c2c1C[C@H]1C[C@H]3[C@H](N(C)C)C(O)=C(C(N)=O)C(=O)[C@@]3(O)C(O)=C1C2=O  MIC (MRSA 5, Tet M ribosome protection): 16 µg/mL
CCCCc1ccc(N2C(=O)/C(=N\NC(=N)N)c3cc(OC)ccc32)cc1  MIC (microbial growth, broth dilution; 18 h): 6 µg/mL
CN(C)c1ccc2c(CC(=O)NCCCn3cc(CCCCC(=O)Oc4c(Br)cc(Br)cc4-c4[nH]c(Br)c(Br)c4Br)nn3)cc(=O)oc2c1  MIC (microbial growth, broth dilution; NCTC8325; 20 h): 0.25 µg/mL
CC(C)C[C@H](NC(=O)[C@H](CC(N)=O)NC(=O)[C@H](CCCNC(=N)N)NC(=O)[C@@H](CC(C)C)NC(=O)[C@H](Cc1ccccc1)NC(=O)[C@H](CC(=O)O)NC(=O)[C@H](CCCCN)NC(=O)[C@@H](CC(C)C)NC(=O)[C@H](CCCNC(=N)N)NC(=O)[C@H](CCC(N)=O)NC(=O)[C@@H](NC(=O)[C@@H](CC(C)C)NC(=O)[C@H](CCCNC(=N)N)NC(=O)[C@H](CCCCN)NC(=O)[C@H](Cc1ccccc1)NC(=O)CN)C(C)C)C(=O)N[C@H](C(N)=O)C(C)C  MIC (broth microdilution; USA300 LAC, MRSA): > 100 µM
C/C(=N\NC(N)=S)c1ccc2c(c1)sc1nc(=O)c(C#N)cn12  MIC (microbial growth, broth dilution): < 57 µg/mL
CCCCCCCCCc1nc2cc(Cl)ccc2c(=O)n1CCCN  MIC (broth microdilution; RN6390B): 6.25 µM
c1ccc(CN2CCOCCOCCN(CCCCCCCCCCCCCCN3CCOCCOCCN(CCCCCCCCCCCCCCN4CCOCCOCCN(Cc5ccccc5)CCOCCOCC4)CCOCCOCC3)CCOCCOCC2)cc1  MIC (microbial growth): 1.5 µM
CN(C)c1cc(CNCCC(C)(C)C)c(O)c2c1C[C@H]1C[C@H]3[C@H](N(C)C)C(O)=C(C(N)=O)C(=O)[C@@]3(O)C(O)=C1C2=O  MIC (MRSA 5, Tet M ribosome protection): 1 µg/mL
CCCCCCCCCc1nc2cc(F)ccc2c(=O)[nH]1  MIC (broth microdilution; RN6390B): > 100 µM
CC1=C[C@@]2(C)C(=C(C)[C@H]3[C@@H]4C[C@H](C)C[C@H](C)[C@H]4[C@H]4Oc5ccc(cc5)C[C@]5(O)NC(=O)[C@]6(O[C@H]65)C(=O)[C@@H]2[C@@H]43)[C@H]1C  MIC (microbial growth, broth dilution; ATCC29213): 3.1 µM
CN(C)c1cc(CN2CCCC2)c(O)c2c1C[C@H]1C[C@H]3[C@H](N(C)C)C(O)=C(C(N)=O)C(=O)[C@@]3(O)C(O)=C1C2=O  MIC (MRSA 5, Tet M ribosome protection): 2 µg/mL
CC1OCC2OC(OC3C(N)CC(N)C(O)C3OC3OC(CO)C(OC4OC(CN)C(O)C(O)C4N)C3O)C(N)C(O)C2O1 (stereo not shown)  MIC (broth microdilution; MRSA isolate AG 045): 16 to 32 µg/mL
CC(C)CCCCCCCCC/C=C/C(=O)N[C@@H](CC(=O)O)C(=O)N[C@H]1CNC(=O)[C@@H]2CCCN2C(=O)[C@H](C(C)C)NC(=O)[C@@H]([C@@H](C)O)NC(=O)CNC(=O)[C@H](CC(=O)O)NC(=O)CNC(=O)[C@H](CC(=O)O)NC(=O)CNC(=O)[C@H]2CCCCN2C1=O  MIC (MRSA USA300; with: Ca2+ 10 mM): 2 µg/mL
CN(Cc1cc(N(C)C)c2c(c1O)C(=O)C1=C(O)[C@]3(O)C(=O)C(C(N)=O)=C(O)[C@@H](N(C)C)[C@@H]3C[C@@H]1C2)CC(C)(C)C  MIC (MRSA 5, Tet M, 50% human serum): > 64 µg/mL
Cc1cc(/C=C2\Sc3ccccc3N2CCCN2CCCC2)c2ccccc2[n+]1C  MIC (microbial growth, broth dilution; ATCCBAA41 MRSA): 8 µg/mL
CNC(CC(C)C)C(=O)NC1C(=O)NC(CC(N)=O)C(=O)NC2C(=O)NC3C(=O)NC(C(=O)NC(C(=O)O)c4cc(O)cc(O)c4-c4cc3ccc4O)C(O)c3ccc(c(Cl)c3)Oc3cc2cc(c3OC2OC(CO)C(O)C(O)C2OC2CC(C)(NC(=O)CCCC[N+]3(C)CCOCC3)C(O)C(C)O2)Oc2ccc(cc2Cl)C1O (stereo not shown)  MIC (agar dilution; MRSA clinical isolate MRSA3): 512 µg/mL
NC[C@@H]1O[C@H](O[C@H]2[C@@H](O)[C@H](O[C@@H]3[C@@H](O)[C@H](N)C[C@H](N)[C@H]3O[C@H]3O[C@H](CO)[C@@H](OCC(O)CO)[C@H](O)[C@H]3N)O[C@@H]2CO)[C@H](N)[C@@H](O)[C@@H]1O (stereo partly shown)  MIC (broth microdilution; MRSA isolate AG 044): 32 µg/mL
